{"data": "Published values collected from several papers", "note": "Numbered parts are unrelated; each lists some results of a single study.", "sequence of UniProt Q15349 (whole entry, looked up)": "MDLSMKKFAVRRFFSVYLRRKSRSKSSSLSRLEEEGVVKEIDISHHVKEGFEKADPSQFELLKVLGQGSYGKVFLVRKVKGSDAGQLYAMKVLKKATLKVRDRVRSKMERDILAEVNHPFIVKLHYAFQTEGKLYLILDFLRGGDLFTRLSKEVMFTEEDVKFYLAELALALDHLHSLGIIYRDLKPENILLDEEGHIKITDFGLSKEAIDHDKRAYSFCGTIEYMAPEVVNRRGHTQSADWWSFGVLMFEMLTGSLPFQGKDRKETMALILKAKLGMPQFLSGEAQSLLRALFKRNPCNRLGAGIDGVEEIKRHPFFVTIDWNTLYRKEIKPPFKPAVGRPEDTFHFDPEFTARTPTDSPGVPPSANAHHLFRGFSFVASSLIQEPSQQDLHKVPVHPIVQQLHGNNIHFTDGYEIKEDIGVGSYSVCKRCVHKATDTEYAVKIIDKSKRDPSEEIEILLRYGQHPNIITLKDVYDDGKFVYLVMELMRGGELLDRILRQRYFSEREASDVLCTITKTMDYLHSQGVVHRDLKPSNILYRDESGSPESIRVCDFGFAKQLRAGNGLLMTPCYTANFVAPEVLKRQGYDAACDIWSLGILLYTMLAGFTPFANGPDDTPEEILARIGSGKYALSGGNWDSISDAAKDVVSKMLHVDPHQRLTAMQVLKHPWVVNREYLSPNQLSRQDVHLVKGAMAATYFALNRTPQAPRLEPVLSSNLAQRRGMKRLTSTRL", "sequence of UniProt P36507 (whole entry, looked up)": "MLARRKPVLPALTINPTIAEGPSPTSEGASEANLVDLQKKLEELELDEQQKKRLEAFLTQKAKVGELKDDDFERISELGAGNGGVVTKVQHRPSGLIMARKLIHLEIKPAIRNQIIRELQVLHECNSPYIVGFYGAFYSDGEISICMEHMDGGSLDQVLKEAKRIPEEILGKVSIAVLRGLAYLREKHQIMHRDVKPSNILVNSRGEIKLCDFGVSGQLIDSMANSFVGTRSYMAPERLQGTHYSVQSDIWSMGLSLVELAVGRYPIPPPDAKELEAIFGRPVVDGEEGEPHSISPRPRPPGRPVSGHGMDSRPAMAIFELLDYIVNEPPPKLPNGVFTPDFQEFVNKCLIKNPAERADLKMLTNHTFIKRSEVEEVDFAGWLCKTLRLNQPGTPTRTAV", "sequence of UniProt Q13177 (whole entry, looked up)": "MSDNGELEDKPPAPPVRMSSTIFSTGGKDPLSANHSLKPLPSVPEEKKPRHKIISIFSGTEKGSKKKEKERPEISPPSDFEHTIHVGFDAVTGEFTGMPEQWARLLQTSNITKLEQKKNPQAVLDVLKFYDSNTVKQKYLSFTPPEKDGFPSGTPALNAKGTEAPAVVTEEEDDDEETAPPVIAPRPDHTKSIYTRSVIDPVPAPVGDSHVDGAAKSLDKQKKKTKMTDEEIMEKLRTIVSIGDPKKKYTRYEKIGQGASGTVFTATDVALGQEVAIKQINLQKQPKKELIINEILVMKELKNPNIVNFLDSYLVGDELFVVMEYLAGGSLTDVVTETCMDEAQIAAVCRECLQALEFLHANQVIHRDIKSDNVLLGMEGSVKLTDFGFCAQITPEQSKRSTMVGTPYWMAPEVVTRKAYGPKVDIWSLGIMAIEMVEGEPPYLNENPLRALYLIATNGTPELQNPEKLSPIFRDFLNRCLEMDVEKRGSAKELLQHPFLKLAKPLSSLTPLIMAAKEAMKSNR", "sequence of UniProt Q86Z02 (whole entry, looked up)": "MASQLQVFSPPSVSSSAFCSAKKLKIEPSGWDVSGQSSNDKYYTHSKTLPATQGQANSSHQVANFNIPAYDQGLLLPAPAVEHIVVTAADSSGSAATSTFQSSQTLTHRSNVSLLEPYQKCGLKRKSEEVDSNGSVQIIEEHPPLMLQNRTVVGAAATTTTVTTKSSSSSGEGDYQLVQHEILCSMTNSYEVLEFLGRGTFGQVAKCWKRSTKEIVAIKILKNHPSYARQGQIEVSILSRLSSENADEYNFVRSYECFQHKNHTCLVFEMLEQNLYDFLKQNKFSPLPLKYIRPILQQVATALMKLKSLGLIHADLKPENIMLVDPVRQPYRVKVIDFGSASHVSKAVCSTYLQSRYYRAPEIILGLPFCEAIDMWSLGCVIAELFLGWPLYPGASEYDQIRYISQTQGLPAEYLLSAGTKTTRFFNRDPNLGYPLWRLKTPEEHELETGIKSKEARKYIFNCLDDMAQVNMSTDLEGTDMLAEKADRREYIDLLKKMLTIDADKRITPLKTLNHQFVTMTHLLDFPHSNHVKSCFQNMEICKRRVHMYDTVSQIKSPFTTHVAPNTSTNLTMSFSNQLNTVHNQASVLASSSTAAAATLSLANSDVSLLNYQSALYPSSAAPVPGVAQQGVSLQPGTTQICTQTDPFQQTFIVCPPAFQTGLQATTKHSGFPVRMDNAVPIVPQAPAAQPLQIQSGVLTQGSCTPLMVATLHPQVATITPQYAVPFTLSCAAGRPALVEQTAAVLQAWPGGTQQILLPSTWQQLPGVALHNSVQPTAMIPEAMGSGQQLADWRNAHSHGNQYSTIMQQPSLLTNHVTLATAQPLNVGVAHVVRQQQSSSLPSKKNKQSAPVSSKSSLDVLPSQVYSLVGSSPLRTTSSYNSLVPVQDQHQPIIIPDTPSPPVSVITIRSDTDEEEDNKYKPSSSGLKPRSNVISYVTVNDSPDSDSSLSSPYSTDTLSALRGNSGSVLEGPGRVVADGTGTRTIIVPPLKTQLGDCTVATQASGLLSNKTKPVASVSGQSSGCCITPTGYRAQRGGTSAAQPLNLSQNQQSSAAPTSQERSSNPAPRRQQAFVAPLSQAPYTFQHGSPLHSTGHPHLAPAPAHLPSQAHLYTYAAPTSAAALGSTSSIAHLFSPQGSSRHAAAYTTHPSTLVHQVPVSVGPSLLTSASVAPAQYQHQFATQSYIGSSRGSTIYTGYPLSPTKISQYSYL", "sequence of UniProt P30291 (whole entry, looked up)": "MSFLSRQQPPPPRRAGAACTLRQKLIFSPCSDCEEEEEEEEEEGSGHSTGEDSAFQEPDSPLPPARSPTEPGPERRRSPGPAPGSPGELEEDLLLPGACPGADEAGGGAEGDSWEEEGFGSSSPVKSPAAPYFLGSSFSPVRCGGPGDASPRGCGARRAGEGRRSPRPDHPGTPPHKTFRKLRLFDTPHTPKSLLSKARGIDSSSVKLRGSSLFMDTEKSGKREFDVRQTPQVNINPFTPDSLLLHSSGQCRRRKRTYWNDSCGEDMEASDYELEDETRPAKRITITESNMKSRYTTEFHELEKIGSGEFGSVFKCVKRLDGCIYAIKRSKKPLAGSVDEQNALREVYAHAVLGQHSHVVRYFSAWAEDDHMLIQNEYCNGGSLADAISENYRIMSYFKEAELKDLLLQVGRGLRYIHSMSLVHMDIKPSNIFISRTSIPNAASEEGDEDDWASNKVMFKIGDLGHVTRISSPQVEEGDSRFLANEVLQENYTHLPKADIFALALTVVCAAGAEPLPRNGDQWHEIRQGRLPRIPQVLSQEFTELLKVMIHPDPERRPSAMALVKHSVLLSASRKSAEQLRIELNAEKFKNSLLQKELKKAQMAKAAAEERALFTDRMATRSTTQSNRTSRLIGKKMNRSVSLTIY", "sequence of UniProt Q8IYT8 (whole entry, looked up)": "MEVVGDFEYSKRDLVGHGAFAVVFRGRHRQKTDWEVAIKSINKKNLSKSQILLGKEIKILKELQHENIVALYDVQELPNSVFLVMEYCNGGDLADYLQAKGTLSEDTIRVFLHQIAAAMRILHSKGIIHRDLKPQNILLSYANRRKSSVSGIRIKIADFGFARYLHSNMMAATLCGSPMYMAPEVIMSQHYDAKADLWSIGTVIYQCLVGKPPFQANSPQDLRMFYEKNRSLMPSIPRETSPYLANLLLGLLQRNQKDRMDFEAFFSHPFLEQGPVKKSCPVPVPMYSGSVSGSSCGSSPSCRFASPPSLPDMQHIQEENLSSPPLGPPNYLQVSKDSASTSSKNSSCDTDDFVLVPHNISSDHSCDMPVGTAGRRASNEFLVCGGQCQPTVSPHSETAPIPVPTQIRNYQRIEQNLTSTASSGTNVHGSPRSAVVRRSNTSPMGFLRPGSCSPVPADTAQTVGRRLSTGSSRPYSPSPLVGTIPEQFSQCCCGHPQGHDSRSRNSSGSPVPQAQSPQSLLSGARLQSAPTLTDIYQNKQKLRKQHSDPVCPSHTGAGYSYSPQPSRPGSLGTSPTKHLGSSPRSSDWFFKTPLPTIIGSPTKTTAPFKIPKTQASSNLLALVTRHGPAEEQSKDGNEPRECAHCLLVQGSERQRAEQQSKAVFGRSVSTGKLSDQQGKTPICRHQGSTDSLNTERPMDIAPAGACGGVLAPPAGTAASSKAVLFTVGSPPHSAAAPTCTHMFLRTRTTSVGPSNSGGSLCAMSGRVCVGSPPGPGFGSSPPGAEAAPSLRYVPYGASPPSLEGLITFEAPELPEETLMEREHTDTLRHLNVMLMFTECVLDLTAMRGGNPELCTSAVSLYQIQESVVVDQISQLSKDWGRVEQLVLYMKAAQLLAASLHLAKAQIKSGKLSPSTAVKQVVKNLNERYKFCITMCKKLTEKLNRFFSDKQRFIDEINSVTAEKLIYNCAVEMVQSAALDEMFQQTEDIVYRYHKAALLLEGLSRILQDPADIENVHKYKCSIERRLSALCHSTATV", "sequence of UniProt P49137 (whole entry, looked up)": "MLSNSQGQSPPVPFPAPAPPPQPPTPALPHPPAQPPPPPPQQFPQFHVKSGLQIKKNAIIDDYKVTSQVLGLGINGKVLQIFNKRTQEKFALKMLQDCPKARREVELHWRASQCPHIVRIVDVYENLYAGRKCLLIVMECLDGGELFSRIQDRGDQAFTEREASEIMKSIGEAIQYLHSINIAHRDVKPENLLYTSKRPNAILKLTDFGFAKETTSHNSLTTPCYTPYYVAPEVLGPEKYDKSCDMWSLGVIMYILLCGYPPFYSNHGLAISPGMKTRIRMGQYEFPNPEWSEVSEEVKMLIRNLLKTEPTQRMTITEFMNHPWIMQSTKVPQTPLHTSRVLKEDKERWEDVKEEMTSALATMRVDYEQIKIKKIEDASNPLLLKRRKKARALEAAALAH"}
{"data": "Sample 1", "cell line": "HH", "tested at": "2 µM", "time": "48 h", "relative to": "untreated"}
{"SMILES": "CN1CCN(c2cccc(Nc3nc4c(-c5ccc(S(C)(=O)=O)cc5)cccn4n3)c2)CC1", "viability [%]": 82.4}
{"SMILES": "C#Cc1cccc(Nc2ncnc3cc(OCCOC)c(OCCO)cc23)c1", "viability [%]": 91.9}
{"SMILES": "Oc1ccc(-c2nc(-c3ccc(F)cc3)c(-c3ccncc3)[nH]2)cc1", "viability [%]": 102}
{"SMILES": "O=C(c1ccc(Nc2nccc(-c3cc4ccccc4s3)n2)cc1)N1CCC(N2CCCC2)CC1", "viability [%]": 52.2}
{"SMILES": "CC[C@@H]1C(=O)N(C)c2cnc(Nc3ccc(C(=O)N[C@H]4CC[C@H](N5CCN(CC6CC6)CC5)CC4)cc3OC)nc2N1C(C)C", "viability [%]": 27.6}
{"SMILES": "COc1ccc(COc2cc3oc(=O)c4cc(C(C)O)ccc4c3cc2OC)cc1 (stereo not shown)", "viability [%]": 76.3}
{"SMILES": "CCc1cncnc1N1CCN(Cc2nc3ccc(C(F)(F)F)cc3[nH]2)CC1", "viability [%]": 80.5}
{"SMILES": "Cc1c[nH]c2nc(Nc3ccc(N4CCN(C)CC4)c(F)c3)nc(-c3cccc(CC#N)c3)c12", "viability [%]": 27.8}
{"SMILES": "Nc1nc(N)c2nc(-c3cccc(O)c3)c(-c3cccc(O)c3)nc2n1", "viability [%]": 91.6}
{"SMILES": "O=C(c1ccc(F)c(F)c1Nc1ccc(I)cc1F)N1CC(O)([C@@H]2CCCCN2)C1", "viability [%]": 92.6}
{"data": "Sample 2", "Compound": "CO[C@H]1CC[C@H](CNc2ccc(S(=O)(=O)NC(=O)c3ccc(N4CCN(CC5=C(c6ccc(Cl)cc6)CC(C)(C)CC5)CC4)cc3Oc3cnc4[nH]ccc4c3)cc2[N+](=O)[O-])CC1", "read-out": "cell-free assay", "method": "competition with immobilised ligand", "tested at": "1 µM"}
{"target": "Homeodomain-interacting protein kinase 1 (HIPK1, Homo sapiens, UniProt Q86Z02)", "remaining binding": "61%"}
{"target": "cGMP-dependent protein kinase 1 (PRKG1, Homo sapiens, UniProt Q13976)", "remaining binding": "92%"}
{"target": "Serine/threonine-protein kinase LATS2 (LATS2, Homo sapiens, UniProt Q9NRM7)", "remaining binding": "100%"}
{"target": "Ribosomal protein S6 kinase alpha-2, C-terminal kinase domain (RPS6KA2, Homo sapiens, UniProt Q15349)", "remaining binding": "71%"}
{"target": "Phosphatidylinositol 4-phosphate 3-kinase C2 domain-containing subunit beta (PIK3C2B, Homo sapiens, UniProt O00750)", "remaining binding": "92%"}
{"target": "Mitogen-activated protein kinase kinase kinase 11 (MAP3K11, Homo sapiens, UniProt Q16584)", "remaining binding": "74%"}
{"target": "Dual specificity mitogen-activated protein kinase kinase 2 (MAP2K2, Homo sapiens, UniProt P36507)", "remaining binding": "100%"}
{"target": "Serine/threonine-protein kinase N1 (PKN1, Homo sapiens, UniProt Q16512)", "remaining binding": "83%"}
{"target": "Activated CDC42 kinase 1 (TNK2, Homo sapiens, UniProt Q07912)", "remaining binding": "96%"}
{"target": "Serine/threonine-protein kinase PAK 2 (PAK2, Homo sapiens, UniProt Q13177)", "remaining binding": "68%"}
{"data": "Sample 3", "organism": "Sarcocystis neurona", "read-out": "parasite growth", "tested at": "10 µM", "time": "96 h", "setting": "secondary screen"}
{"Compound": "CC(=O)S[C@@H]1CC2=CC(=O)CC[C@]2(C)[C@H]2CC[C@@]3(C)[C@@H](CC[C@@]34CCC(=O)O4)[C@H]12", "inhibition [%]": -11.8}
{"Compound": "Cc1ncc([N+](=O)[O-])n1CC(O)CCl (stereo not shown)", "inhibition [%]": -13.1}
{"Compound": "CC1COc2c(N3CCN(C)CC3)c(F)cc3c(=O)c(C(=O)O)cn1c23 (stereo not shown)", "inhibition [%]": -27.7}
{"Compound": "O=C(NCCO[N+](=O)[O-])c1cccnc1", "inhibition [%]": -41.2}
{"Compound": "CN(C)CCOC(c1ccc(Cl)cc1)c1ccccn1 (stereo not shown)", "inhibition [%]": -19.5}
{"Compound": "CC[C@H]1OC(=O)[C@H](C)C(=O)[C@H](C)[C@@H](O[C@@H]2O[C@H](C)C[C@H](N(C)C)[C@H]2O)[C@](C)(OC)C[C@@H](C)C(=O)[C@H](C)[C@H]2N(CCCCn3cnc(-c4cccnc4)c3)C(=O)O[C@]12C", "inhibition [%]": -20.8}
{"Compound": "NC12CC3CC(CC(C3)C1)C2", "inhibition [%]": -20.7}
{"Compound": "COCC1=C(C(=O)OC(C)OC(=O)OC(C)C)N2C(=O)[C@@H](NC(=O)/C(=N\\OC)c3csc(N)n3)[C@H]2SC1 (stereo partly shown)", "inhibition [%]": -28.2}
{"Compound": "CS(=O)(=O)OCCCCOS(C)(=O)=O", "inhibition [%]": -4.7}
{"data": "Sample 4", "Compound": "CCN(CC)C(=O)c1ccc(Nc2nc(OCC3CCCCC3)c3[nH]cnc3n2)cc1", "read-out": "enzyme activity", "action": "inhibitor", "tested at": "0.5 µM", "relative to": "control"}
{"target": "Ephrin type-A receptor 3 (EPHA3, Homo sapiens, UniProt P29320)", "remaining activity [%]": 99.9}
{"target": "Serine/threonine-protein kinase Nek6 (NEK6, Homo sapiens, UniProt Q9HC98)", "remaining activity [%]": 101}
{"target": "Angiopoietin-1 receptor (TEK, Homo sapiens, UniProt Q02763)", "remaining activity [%]": 95.4}
{"target": "Dual specificity mitogen-activated protein kinase kinase 2 (MAP2K2, Homo sapiens, UniProt P36507)", "remaining activity [%]": 94}
{"target": "Serine/threonine-protein kinase ULK2 (ULK2, Homo sapiens, UniProt Q8IYT8)", "remaining activity [%]": 84.9}
{"target": "Ribosomal protein S6 kinase alpha-2 (RPS6KA2, Homo sapiens, UniProt Q15349)", "remaining activity [%]": 30.9}
{"target": "Mitogen-activated protein kinase 3 (MAPK3, Homo sapiens, UniProt P27361)", "remaining activity [%]": 101}
{"target": "Activin receptor type-1B (ACVR1B, Homo sapiens, UniProt P36896)", "remaining activity [%]": 101}
{"target": "Casein kinase I isoform gamma-2 (CSNK1G2, Homo sapiens, UniProt P78368)", "remaining activity [%]": 59.8}
{"target": "Macrophage-stimulating protein receptor (MST1R, Homo sapiens, UniProt Q04912)", "remaining activity [%]": 103}
{"target": "MAP kinase-activated protein kinase 2 (MAPKAPK2, Homo sapiens, UniProt P49137)", "remaining activity [%]": 99.2}
{"target": "Wee1-like protein kinase (WEE1, Homo sapiens, UniProt P30291)", "remaining activity [%]": 110}
{"target": "Glycogen synthase kinase-3 beta (GSK3B, Homo sapiens, UniProt P49841)", "remaining activity [%]": 85}
{"target": "Serine/threonine-protein kinase TBK1 (TBK1, Homo sapiens, UniProt Q9UHD2)", "remaining activity [%]": 25.4}
{"note": "Some of these lines once more (sample 3):"}
{"Compound": "Cc1ncc([N+](=O)[O-])n1CC(O)CCl (stereo not shown)", "inhibition [%]": -13.1}
{"Compound": "COCC1=C(C(=O)OC(C)OC(=O)OC(C)C)N2C(=O)[C@@H](NC(=O)/C(=N\\OC)c3csc(N)n3)[C@H]2SC1 (stereo partly shown)", "inhibition [%]": -28.2}
{"Compound": "CC1COc2c(N3CCN(C)CC3)c(F)cc3c(=O)c(C(=O)O)cn1c23 (stereo not shown)", "inhibition [%]": -27.7}
{"Compound": "NC12CC3CC(CC(C3)C1)C2", "inhibition [%]": -20.7}
{"Compound": "CC(=O)S[C@@H]1CC2=CC(=O)CC[C@]2(C)[C@H]2CC[C@@]3(C)[C@@H](CC[C@@]34CCC(=O)O4)[C@H]12", "inhibition [%]": -11.8}
{"Compound": "CC[C@H]1OC(=O)[C@H](C)C(=O)[C@H](C)[C@@H](O[C@@H]2O[C@H](C)C[C@H](N(C)C)[C@H]2O)[C@](C)(OC)C[C@@H](C)C(=O)[C@H](C)[C@H]2N(CCCCn3cnc(-c4cccnc4)c3)C(=O)O[C@]12C", "inhibition [%]": -20.8}
{"Compound": "CN(C)CCOC(c1ccc(Cl)cc1)c1ccccn1 (stereo not shown)", "inhibition [%]": -19.5}
